Experimental data gathered from unrelated publications.
Every numbered part comes from another study and shows a few of its results, in no order. “And” joins repeats or separate records; there may be more than shown.
Sequence of UniProt Q8IY84 (whole entry, looked up): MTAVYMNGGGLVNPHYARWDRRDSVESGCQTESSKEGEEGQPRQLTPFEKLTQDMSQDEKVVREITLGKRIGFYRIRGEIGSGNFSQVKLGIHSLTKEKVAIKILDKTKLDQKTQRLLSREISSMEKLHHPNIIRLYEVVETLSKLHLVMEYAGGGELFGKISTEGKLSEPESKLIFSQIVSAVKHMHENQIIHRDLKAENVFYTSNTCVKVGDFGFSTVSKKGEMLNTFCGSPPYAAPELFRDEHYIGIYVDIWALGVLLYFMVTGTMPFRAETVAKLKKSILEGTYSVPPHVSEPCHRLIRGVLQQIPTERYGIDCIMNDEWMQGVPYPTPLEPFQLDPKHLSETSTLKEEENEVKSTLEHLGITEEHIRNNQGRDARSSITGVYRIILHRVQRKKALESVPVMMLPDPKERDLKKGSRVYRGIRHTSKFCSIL
Sequence of UniProt P30291 (whole entry, looked up): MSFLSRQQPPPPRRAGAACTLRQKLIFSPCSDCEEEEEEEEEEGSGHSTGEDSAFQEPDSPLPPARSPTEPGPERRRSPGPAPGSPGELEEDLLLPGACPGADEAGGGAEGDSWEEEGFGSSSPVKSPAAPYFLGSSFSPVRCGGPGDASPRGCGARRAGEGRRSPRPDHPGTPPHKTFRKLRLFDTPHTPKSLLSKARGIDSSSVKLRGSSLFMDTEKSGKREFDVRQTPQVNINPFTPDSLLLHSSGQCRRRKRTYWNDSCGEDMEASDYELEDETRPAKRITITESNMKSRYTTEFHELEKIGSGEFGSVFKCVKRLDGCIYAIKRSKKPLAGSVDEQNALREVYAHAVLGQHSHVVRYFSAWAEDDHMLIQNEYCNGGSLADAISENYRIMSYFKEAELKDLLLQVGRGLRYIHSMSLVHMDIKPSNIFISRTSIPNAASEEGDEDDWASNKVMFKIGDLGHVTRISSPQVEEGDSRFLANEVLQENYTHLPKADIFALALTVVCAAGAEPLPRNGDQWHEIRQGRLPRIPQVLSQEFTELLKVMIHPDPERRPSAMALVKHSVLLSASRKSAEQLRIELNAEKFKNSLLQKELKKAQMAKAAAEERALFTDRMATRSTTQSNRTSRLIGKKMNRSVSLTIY
Sequence of UniProt Q9NY57 (whole entry, looked up): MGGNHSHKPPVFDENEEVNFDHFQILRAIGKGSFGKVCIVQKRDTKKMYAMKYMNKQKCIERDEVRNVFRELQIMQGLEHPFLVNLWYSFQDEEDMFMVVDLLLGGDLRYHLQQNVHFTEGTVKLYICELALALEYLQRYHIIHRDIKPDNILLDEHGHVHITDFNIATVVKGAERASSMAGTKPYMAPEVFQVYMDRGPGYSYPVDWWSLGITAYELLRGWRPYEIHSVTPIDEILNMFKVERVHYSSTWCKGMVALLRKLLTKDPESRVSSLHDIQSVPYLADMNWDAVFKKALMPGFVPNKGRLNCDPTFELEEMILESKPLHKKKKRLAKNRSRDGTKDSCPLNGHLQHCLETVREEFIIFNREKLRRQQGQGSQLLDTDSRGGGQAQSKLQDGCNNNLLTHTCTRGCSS
Sequence of UniProt P22607 (whole entry, looked up): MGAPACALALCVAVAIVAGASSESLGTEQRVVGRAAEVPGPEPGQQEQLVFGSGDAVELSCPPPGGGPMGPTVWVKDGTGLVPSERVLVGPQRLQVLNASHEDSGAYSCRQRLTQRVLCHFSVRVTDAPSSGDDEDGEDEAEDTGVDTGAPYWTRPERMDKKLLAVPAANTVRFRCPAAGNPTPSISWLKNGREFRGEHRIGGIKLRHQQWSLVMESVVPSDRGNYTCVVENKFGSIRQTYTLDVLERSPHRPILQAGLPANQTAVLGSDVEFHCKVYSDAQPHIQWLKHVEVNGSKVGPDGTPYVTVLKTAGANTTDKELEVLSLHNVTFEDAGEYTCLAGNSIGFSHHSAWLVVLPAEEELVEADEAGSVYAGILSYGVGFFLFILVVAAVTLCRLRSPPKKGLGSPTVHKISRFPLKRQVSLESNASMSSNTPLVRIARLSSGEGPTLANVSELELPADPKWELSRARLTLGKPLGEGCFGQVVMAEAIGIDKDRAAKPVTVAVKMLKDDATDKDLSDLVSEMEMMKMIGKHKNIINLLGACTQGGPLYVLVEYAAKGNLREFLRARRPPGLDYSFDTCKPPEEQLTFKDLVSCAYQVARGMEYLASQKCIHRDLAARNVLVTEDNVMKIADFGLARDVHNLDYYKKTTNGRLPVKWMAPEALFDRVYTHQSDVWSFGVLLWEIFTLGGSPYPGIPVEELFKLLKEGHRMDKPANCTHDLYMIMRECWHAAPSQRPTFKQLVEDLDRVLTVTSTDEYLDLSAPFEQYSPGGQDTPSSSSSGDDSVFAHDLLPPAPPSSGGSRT
Sequence of UniProt Q16288 (whole entry, looked up): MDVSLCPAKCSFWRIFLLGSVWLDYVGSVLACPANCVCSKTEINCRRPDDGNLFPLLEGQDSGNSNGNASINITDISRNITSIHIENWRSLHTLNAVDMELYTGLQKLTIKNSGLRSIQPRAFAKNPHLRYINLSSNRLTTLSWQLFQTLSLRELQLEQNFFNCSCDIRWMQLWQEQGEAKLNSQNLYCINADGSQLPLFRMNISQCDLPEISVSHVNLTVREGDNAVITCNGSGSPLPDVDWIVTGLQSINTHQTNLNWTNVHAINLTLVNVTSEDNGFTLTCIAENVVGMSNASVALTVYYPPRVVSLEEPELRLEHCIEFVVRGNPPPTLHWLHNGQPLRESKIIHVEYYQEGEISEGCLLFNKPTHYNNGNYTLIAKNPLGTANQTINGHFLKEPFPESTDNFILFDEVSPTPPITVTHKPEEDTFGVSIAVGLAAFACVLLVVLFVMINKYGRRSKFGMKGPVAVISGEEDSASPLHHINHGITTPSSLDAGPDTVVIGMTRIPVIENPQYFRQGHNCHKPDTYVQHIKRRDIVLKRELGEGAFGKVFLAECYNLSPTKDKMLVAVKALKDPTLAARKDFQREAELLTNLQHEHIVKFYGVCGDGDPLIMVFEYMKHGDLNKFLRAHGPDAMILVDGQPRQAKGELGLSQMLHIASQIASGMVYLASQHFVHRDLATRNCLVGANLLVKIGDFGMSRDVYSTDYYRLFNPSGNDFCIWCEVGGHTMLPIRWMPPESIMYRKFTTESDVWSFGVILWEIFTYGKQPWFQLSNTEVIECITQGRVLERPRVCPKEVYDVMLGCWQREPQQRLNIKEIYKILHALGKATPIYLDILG
Sequence of UniProt Q8IU85 (whole entry, looked up): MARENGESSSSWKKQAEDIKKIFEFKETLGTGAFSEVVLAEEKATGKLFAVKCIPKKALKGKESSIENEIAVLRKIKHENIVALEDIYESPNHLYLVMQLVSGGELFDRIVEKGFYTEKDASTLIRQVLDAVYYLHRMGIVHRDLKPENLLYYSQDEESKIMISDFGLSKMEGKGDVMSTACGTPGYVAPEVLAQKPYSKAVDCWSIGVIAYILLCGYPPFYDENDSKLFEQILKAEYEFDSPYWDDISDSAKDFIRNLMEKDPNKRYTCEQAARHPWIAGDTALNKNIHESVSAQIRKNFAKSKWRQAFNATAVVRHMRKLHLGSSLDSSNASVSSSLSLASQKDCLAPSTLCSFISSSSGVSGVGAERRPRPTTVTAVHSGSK

Sample 1
Compound: C[C@@H]1CN(c2ccc(-c3cc(C(=O)NCCOCCOCCOCCOCCOCCOCCNC(=O)/C=C/c4[nH]cc(C(=O)N[C@@H](CC(N)=O)c5ccc(F)c(Cl)c5)c4-c4ccc(Cl)cc4F)ccc3F)cc2NC(=O)c2ccc(F)cc2C(F)(F)F)C[C@H](C)N1C
Effect on: thermal unfolding
Method: differential scanning fluorimetry
Concentration: 5.5 µM
Direction: higher = more unfolded
WDR5: WD repeat-containing protein 5 (WDR5, Homo sapiens, UniProt P61964)
DCAF1: DDB1- and CUL4-associated factor 1 (DCAF1, Homo sapiens, UniProt Q9Y4B6)
Sequence of UniProt Q9Y4B6 (whole entry, looked up): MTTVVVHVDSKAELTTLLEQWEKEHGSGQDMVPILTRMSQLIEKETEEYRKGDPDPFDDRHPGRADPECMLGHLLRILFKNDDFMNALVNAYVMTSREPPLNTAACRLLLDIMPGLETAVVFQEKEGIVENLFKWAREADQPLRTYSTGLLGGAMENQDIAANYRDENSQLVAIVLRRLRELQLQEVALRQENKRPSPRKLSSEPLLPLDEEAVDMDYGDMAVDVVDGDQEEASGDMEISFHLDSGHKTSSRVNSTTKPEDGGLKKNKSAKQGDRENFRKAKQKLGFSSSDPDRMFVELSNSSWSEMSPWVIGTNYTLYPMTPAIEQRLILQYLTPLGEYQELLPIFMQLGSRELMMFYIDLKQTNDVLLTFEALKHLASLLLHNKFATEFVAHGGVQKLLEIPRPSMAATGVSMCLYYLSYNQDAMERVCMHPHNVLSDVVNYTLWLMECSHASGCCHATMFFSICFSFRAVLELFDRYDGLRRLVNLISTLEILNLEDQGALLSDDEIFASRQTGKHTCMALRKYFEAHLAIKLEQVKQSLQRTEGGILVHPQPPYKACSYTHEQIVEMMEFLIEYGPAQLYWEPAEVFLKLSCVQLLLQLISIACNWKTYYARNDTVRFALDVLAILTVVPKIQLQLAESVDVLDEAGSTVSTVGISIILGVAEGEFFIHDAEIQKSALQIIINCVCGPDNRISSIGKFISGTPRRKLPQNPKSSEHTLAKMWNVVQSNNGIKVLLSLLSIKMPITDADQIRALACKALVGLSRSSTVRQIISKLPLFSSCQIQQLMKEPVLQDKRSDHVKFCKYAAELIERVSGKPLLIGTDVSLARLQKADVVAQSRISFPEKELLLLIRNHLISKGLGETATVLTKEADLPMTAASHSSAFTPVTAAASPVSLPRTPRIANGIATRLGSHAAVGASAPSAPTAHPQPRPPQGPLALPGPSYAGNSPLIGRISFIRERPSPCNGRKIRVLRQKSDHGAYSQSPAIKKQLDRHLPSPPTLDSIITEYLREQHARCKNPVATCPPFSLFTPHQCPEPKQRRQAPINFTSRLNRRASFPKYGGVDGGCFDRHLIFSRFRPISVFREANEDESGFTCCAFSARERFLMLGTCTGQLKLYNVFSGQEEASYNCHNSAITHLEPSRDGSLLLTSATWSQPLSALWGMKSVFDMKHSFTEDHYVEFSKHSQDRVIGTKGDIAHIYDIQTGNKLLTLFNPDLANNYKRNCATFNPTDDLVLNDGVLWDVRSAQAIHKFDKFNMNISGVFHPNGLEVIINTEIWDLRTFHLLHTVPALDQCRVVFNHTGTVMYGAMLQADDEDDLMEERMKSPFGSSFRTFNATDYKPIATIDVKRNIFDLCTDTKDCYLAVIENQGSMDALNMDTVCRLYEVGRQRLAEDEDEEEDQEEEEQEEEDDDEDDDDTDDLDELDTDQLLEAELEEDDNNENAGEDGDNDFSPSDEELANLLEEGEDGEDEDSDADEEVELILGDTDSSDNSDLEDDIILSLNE
target	temperature	SYPRO Orange fluorescence [a.u.]
WDR5	61.81 °C	15200
WDR5	47.2 °C	15200
DCAF1	33.6 °C	9430
DCAF1	58.81 °C	42300
WDR5	81.41 °C	65700
WDR5	57.41 °C	15900
WDR5	89.61 °C	55600
DCAF1	80.21 °C	39800
WDR5	93.21 °C	50300
WDR5	25 °C	13200
DCAF1	43.2 °C	13600

Sample 2
SMILES: Cc1ncsc1-c1ccc(C(CO)NC(=O)C2CC(O)CN2C(=O)C(C(C)C)n2cc(-c3ccc(COc4c(-c5c(C)c(F)cc6[nH]ncc56)c(C5CC5)cc5c(N6CC7CC6CN7)nc(OC6CCOCC6)nc45)cc3)nn2)cc1 (stereo not drawn)
Method: qRT-PCR
Species: mouse, PK-59 xenograft
Sample: tumour
Notes: unit not given
measured	route	dose	time	reference	mRNA level
SPRY4	intravenous	30 mg/kg	144 h	vehicle, same time point	0.00452 and 0.00328
SPRY4		10 mg/kg	72 h	vehicle	0.26 and 0.231 and 0.2
SPRY4		30 mg/kg	144 h	vehicle	0.536 and 0.389
MYC		10 mg/kg	2 h	vehicle	0.786 and 0.705 and 0.484
DUSP4	intravenous	10 mg/kg	72 h	vehicle, same time point	0.11 and 0.0926 and 0.0863
MYC		30 mg/kg	6 h	vehicle	0.464 and 0.436 and 0.489
ETV4		10 mg/kg	6 h	vehicle	0.464 and 0.745 and 0.846
FOSL1	intravenous	30 mg/kg	48 h	vehicle, same time point	0.000675 and 0.000615
MYC		10 mg/kg	72 h	vehicle	0.713 and 0.534 and 0.659

Sample 3
Compound: COc1cc(-c2nc3ccc(C(=O)NCCCN(C)C)cc3n2C2CCC2)cc(OC)c1OC
Method: NanoBRET
Concentration: 1 µM
target	target occupancy [%]
Serine/threonine-protein kinase 4 (STK4, Homo sapiens, UniProt Q13043)	4.75
STE20-like serine/threonine-protein kinase (SLK, Homo sapiens, UniProt Q9H2G2)	-5.37
Tyrosine-protein kinase ABL2 (ABL2, Homo sapiens, UniProt P42684)	2.61
Serine/threonine-protein kinase NIM1 (NIM1K, Homo sapiens, UniProt Q8IY84)	1.92
Serine/threonine-protein kinase Nek2 (NEK2, Homo sapiens, UniProt P51955)	-12.9
Cyclin-dependent kinase 1, with cyclin B1 (CDK1, Homo sapiens, UniProt P06493)	2.41
Dual specificity protein kinase CLK1 (CLK1, Homo sapiens, UniProt P49759)	3.15
Insulin receptor (INSR, Homo sapiens, UniProt P06213)	-2.56
Serine/threonine-protein kinase ULK2 (ULK2, Homo sapiens, UniProt Q8IYT8)	2.22
Myosin light chain kinase (MYLK3, Homo sapiens, UniProt Q32MK0)	-6.9
Serine/threonine-protein kinase PLK2 (PLK2, Homo sapiens, UniProt Q9NYY3)	-9.57
Serine/threonine-protein kinase 38-like (STK38L, Homo sapiens, UniProt Q9Y2H1)	-2.65
Fibroblast growth factor receptor 3 (FGFR3, Homo sapiens, UniProt P22607)	-2.55
Serine/threonine-protein kinase 32B (STK32B, Homo sapiens, UniProt Q9NY57)	1.12
cAMP-dependent protein kinase catalytic subunit PRKX (PRKX, Homo sapiens, UniProt P51817)	1.09
LIM domain kinase 1 (LIMK1, Homo sapiens, UniProt P53667)	0.2
Serine/threonine-protein kinase Nek4 (NEK4, Homo sapiens, UniProt P51957)	2.57
Serine/threonine-protein kinase Nek9 (NEK9, Homo sapiens, UniProt Q8TD19)	4.99
Serine/threonine-protein kinase SIK1 (SIK1, Homo sapiens, UniProt P57059)	-7.42

Sample 4
SMILES: O=C(Nc1ccccc1)Nc1cccc(Oc2ccc3nccn3n2)c1
target	effect on	method	concentration	remaining binding
Mitogen-activated protein kinase kinase kinase 7 (MAP3K7, Homo sapiens, UniProt O43318)	binding	competition with immobilised ligand	1 µM	100%
Receptor-type tyrosine-protein kinase FLT3 (FLT3, Homo sapiens, UniProt P36888)	binding	competition with immobilised ligand	1 µM	96%
Mitogen-activated protein kinase 7 (MAPK7, Homo sapiens, UniProt Q13164)	binding		1 µM	100%
Serine/threonine-protein kinase Nek1 (NEK1, Homo sapiens, UniProt Q96PY6)	binding		1 µM	100%
Cyclin-dependent kinase 19 (CDK19, Homo sapiens, UniProt Q9BWU1)		DiscoverX cell-free binding	1000 nM	100%
Rho-associated protein kinase 1 (ROCK1, Homo sapiens, UniProt Q13464)	binding		1 µM	100%
TGF-beta receptor type-1 (TGFBR1, Homo sapiens, UniProt P36897)	binding	competition with immobilised ligand	1 µM	95%
Dual specificity protein kinase CLK3 (CLK3, Homo sapiens, UniProt P49761)	binding		1 µM	100%
Aurora kinase C (AURKC, Homo sapiens, UniProt Q9UQB9)		cell-free binding	1 µM	74%
NT-3 growth factor receptor (NTRK3, Homo sapiens, UniProt Q16288)	binding	competition with immobilised ligand	1 µM	73%
Mitogen-activated protein kinase kinase kinase kinase 5 (MAP4K5, Homo sapiens, UniProt Q9Y4K4)	binding	competition with immobilised ligand	1 µM	100%
Interleukin-1 receptor-associated kinase 4 (IRAK4, Homo sapiens, UniProt Q9NWZ3)	binding		1 µM	100%
Cyclin-dependent kinase 14 (CDK14, Homo sapiens, UniProt O94921)	binding	competition with immobilised ligand	1 µM	100%
Calcium/calmodulin-dependent protein kinase type 1D (CAMK1D, Homo sapiens, UniProt Q8IU85)	binding		1 µM	97%
Wee1-like protein kinase (WEE1, Homo sapiens, UniProt P30291)	binding	competition with immobilised ligand	1 µM	100%
Ankyrin repeat and protein kinase domain-containing protein 1 (ANKK1, Homo sapiens, UniProt Q8NFD2)	binding		1 µM	100%
TGF-beta receptor type-2 (TGFBR2, Homo sapiens, UniProt P37173)	binding	competition with immobilised ligand	1 µM	91%
Serine/threonine-protein kinase TBK1 (TBK1, Homo sapiens, UniProt Q9UHD2)	binding		1 µM	90%

Repeated from above (sample 4):
target	effect on	method	concentration	remaining binding
Cyclin-dependent kinase 19 (CDK19, Homo sapiens, UniProt Q9BWU1)		DiscoverX cell-free binding	1000 nM	100%
Rho-associated protein kinase 1 (ROCK1, Homo sapiens, UniProt Q13464)	binding		1 µM	100%
TGF-beta receptor type-1 (TGFBR1, Homo sapiens, UniProt P36897)	binding	competition with immobilised ligand	1 µM	95%
Dual specificity protein kinase CLK3 (CLK3, Homo sapiens, UniProt P49761)	binding		1 µM	100%
Aurora kinase C (AURKC, Homo sapiens, UniProt Q9UQB9)		cell-free binding	1 µM	74%
NT-3 growth factor receptor (NTRK3, Homo sapiens, UniProt Q16288)	binding	competition with immobilised ligand	1 µM	73%
Mitogen-activated protein kinase kinase kinase kinase 5 (MAP4K5, Homo sapiens, UniProt Q9Y4K4)	binding	competition with immobilised ligand	1 µM	100%
